{"data": "Experimental data from different studies", "Penicillin-binding protein 2X": "Penicillin-binding protein 2X (Streptococcus pneumoniae R6, UniProt P59676)", "CX3CR1": "CX3C chemokine receptor 1 (CX3CR1, Homo sapiens, UniProt P49238)", "HTR2C": "5-hydroxytryptamine receptor 2C (HTR2C, Homo sapiens, UniProt P28335)", "note": "Protocols differ between the studies behind these lines. Several values in a cell are separate wells, animals, samples, runs or records. Numbers after ± are the reported error.", "UniProt P27361, sequence (whole entry, looked up)": "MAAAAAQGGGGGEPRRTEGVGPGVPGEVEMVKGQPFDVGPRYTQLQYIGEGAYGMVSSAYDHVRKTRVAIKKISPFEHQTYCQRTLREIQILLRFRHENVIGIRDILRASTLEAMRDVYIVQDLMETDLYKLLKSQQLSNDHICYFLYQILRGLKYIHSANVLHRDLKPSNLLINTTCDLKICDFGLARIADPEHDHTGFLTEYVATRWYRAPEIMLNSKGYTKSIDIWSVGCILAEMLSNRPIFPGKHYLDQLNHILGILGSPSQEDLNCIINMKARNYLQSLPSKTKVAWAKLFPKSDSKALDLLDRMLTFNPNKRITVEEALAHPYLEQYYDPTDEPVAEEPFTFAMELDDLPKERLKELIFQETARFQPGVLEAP", "UniProt Q007T0, sequence (whole entry, looked up)": "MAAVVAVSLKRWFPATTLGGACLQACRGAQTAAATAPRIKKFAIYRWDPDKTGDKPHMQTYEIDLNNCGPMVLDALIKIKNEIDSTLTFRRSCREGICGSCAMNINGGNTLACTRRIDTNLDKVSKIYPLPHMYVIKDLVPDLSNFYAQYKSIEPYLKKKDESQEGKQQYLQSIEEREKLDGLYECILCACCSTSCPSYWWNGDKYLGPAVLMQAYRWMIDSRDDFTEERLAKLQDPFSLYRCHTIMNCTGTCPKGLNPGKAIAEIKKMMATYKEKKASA", "UniProt D0VWV4, sequence (whole entry, looked up)": "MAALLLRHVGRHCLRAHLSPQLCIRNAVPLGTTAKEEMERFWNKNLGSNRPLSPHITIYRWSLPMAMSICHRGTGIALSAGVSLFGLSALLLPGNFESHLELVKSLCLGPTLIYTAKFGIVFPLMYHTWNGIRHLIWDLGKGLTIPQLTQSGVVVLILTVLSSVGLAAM", "UniProt A5GZW8, sequence (whole entry, looked up)": "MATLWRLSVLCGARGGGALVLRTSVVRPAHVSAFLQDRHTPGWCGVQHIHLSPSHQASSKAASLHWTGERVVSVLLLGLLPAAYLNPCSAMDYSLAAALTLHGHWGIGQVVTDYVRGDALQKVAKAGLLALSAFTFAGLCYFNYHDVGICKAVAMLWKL", "UniProt P28335, sequence (whole entry, looked up)": "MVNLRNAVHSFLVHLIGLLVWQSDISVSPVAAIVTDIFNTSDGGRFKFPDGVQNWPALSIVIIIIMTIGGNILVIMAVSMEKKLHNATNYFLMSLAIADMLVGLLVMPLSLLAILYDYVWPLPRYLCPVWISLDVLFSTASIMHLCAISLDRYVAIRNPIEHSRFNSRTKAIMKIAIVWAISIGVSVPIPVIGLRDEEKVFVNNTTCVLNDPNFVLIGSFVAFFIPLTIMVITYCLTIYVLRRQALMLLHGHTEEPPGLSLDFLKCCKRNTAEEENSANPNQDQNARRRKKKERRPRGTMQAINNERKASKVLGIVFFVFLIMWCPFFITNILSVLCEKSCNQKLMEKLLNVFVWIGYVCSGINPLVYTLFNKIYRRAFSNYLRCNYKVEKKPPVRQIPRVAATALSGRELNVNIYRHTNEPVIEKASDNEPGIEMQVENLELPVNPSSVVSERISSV", "UniProt P00942, sequence (whole entry, unmodified, looked up)": "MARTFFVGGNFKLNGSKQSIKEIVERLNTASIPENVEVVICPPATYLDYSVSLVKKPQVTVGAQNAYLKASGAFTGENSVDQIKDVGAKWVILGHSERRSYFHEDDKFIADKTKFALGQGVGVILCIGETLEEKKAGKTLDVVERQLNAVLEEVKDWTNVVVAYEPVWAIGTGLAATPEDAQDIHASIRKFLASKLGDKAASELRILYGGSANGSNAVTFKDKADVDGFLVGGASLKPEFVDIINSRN", "UniProt P49238, sequence (whole entry, looked up)": "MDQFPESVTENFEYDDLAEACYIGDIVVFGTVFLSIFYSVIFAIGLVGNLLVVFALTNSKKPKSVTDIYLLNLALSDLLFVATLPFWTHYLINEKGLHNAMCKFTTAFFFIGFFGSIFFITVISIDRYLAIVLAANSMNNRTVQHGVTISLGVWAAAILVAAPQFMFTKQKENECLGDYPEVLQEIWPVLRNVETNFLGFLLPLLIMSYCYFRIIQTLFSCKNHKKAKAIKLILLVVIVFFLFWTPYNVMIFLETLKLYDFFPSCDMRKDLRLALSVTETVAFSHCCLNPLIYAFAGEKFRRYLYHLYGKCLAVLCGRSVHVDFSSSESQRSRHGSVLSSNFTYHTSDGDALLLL", "UniProt Q92945, sequence (whole entry, looked up)": "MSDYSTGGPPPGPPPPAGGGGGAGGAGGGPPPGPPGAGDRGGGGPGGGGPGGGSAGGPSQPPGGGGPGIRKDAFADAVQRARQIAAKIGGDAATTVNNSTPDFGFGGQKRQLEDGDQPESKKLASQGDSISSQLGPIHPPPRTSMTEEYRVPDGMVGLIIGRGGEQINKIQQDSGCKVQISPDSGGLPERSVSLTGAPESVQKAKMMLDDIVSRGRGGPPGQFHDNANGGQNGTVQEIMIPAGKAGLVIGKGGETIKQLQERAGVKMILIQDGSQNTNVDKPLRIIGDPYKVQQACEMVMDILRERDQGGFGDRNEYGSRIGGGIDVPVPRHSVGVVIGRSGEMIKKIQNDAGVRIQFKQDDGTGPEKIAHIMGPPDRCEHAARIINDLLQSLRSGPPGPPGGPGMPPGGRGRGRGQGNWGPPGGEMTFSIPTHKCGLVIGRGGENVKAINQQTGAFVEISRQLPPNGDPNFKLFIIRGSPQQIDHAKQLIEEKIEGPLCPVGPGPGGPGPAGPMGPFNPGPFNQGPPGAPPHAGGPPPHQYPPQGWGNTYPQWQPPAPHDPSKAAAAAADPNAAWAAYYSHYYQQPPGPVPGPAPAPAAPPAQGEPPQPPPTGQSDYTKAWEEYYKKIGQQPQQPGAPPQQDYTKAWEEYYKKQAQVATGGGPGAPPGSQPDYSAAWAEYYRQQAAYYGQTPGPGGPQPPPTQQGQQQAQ", "UniProt P12763, sequence (whole entry, unmodified, looked up)": "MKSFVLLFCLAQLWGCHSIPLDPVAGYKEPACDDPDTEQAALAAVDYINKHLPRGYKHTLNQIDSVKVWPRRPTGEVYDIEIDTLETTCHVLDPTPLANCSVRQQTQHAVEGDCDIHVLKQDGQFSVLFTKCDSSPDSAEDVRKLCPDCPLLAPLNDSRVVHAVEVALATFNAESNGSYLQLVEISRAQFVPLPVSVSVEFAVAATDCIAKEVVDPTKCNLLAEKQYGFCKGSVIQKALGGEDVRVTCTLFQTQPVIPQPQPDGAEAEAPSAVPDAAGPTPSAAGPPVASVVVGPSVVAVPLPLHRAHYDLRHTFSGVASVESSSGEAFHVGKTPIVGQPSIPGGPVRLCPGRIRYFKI", "UniProt Q62351, sequence (whole entry, looked up)": "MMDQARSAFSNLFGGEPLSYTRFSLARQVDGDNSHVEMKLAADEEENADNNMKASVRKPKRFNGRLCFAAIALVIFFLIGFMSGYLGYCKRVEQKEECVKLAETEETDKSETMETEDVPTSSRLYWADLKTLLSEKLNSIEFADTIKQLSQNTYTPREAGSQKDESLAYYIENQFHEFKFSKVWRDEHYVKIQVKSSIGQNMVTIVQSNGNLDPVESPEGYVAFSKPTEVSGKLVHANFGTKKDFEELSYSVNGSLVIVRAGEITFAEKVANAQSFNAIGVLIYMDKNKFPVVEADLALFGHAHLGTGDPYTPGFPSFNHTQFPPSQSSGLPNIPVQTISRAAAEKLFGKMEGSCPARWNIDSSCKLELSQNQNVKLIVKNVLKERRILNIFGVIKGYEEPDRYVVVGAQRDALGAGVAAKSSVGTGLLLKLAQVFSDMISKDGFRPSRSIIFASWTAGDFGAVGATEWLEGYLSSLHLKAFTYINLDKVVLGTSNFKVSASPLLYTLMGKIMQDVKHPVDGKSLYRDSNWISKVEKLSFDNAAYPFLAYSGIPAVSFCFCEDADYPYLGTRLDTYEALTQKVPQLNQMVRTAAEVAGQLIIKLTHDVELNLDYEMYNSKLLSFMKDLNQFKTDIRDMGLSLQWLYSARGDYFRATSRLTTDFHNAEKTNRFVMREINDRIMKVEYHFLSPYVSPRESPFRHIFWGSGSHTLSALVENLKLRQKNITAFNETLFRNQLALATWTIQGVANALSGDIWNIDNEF", "UniProt Q8NDV2, sequence (whole entry, looked up)": "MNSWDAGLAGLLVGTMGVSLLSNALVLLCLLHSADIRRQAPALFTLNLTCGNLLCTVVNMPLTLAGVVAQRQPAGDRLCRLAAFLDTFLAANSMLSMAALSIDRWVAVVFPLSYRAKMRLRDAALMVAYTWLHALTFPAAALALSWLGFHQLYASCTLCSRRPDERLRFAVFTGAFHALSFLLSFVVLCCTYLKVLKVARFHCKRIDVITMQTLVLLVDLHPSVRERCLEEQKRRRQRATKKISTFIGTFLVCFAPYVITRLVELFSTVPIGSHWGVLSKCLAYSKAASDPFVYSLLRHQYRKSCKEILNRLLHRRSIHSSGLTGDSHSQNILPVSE", "UniProt Q13133, sequence (whole entry, looked up)": "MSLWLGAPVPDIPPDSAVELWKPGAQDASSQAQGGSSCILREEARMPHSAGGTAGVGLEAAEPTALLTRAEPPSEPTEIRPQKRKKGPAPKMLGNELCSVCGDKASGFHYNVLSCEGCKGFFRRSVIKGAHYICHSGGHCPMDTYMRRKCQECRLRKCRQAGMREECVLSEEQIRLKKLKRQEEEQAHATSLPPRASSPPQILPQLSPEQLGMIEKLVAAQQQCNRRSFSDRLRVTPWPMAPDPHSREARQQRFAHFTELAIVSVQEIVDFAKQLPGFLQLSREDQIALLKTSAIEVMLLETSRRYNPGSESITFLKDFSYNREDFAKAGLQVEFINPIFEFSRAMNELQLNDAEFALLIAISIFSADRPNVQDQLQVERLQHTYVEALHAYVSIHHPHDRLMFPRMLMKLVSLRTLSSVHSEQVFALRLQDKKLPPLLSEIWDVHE", "UniProt Q8WZ82, sequence (whole entry, looked up)": "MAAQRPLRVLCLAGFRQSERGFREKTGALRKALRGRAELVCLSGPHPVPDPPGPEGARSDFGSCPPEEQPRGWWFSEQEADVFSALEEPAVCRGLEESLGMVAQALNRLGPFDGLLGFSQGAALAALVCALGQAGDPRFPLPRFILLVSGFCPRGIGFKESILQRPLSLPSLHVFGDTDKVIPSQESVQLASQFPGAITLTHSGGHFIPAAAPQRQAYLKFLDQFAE"}
{"SMILES": "CN1CCCC(=O)C1", "target": "spuC (Halomonas elongata, UniProt E1V913)", "test": "substrate", "endpoint": "Km", "result": "16 ± 2 mM"}
{"SMILES": "CC(C)(C)C(=O)C1C(=O)c2ccccc2C1=O", "target": "NR1H3 (Homo sapiens, UniProt Q13133)", "conditions": "concentration not given", "endpoint": "activity", "result": "inactive"}
{"SMILES": "COc1cc(N)c(Cl)cc1C(=O)NC1CN2CCC1CC2 (stereo not shown)", "target": "G-protein coupled receptor 26 (GPR26, Homo sapiens, UniProt Q8NDV2)", "test": "β-arrestin recruitment, TANGO luminescence, refers to: GPR26", "conditions": "concentration not given", "scale": "baseline: basal luminescence", "endpoint": "log2 fold change", "result": 0.053}
{"SMILES": "C=C(CN(C(=O)c1c(C(F)F)nn(C)c1F)C1CC1)c1ccc(Cl)cc1Cl", "target": "SDHD/SDHC/SDHB (Sus scrofa, UniProt A5GZW8+D0VWV4+Q007T0)", "test": "enzyme activity, inhibitor, DCIP reduction", "system": "pig", "conditions": "0.06 µM, together with: DCIP 190 µM", "endpoint": "reaction velocity", "result": "0.0343 µM/s and 0.035 µM/s and 0.0342 µM/s"}
{"SMILES": "CC(C)C[C@@H]1NC(=O)[C@H](C(C)C)NC(=O)CNC(=O)[C@H](CC(N)=O)NC(=O)[C@@H]2CCCN2C(=O)[C@H](Cc2ccc(O)cc2)NC(=O)[C@H](CCCNC(=N)N)NC(=O)[C@H](Cc2ccccc2)NC(=O)[C@@H](NC(=O)[C@H](CCCCN)NC(=O)[C@@H]2CCCN2C(=O)[C@H](CO)NC(=O)[C@H](C)NC(=O)[C@@H](N)Cc2ccc(O)cc2)CSSC[C@@H](C(=O)N[C@H](C(N)=O)[C@@H](C)O)NC(=O)[C@H](C)NC1=O", "target": "Alpha-2-HS-glycoprotein, asialo (AHSG, Bos taurus, UniProt P12763)", "test": "binding, isothermal titration calorimetry", "conditions": "pH 7.0, 25 °C, together with: asialofetuin", "endpoint": "-ΔG", "result": "5.23 kcal/mol"}
{"SMILES": "COc1cc(Nc2ncc(F)c(Nc3ccc4c(n3)NC(=O)C(C)(C)O4)n2)cc(OC)c1OC", "target": "CSNK1E (Homo sapiens, UniProt P49674)", "test": "KINOMEscan", "conditions": "10 µM", "endpoint": "inhibition", "result": "0%"}
{"SMILES": "COC(=O)[C@@]1(O)C[C@H]2O[C@]1(C)n1c3ccccc3c3c4c(c5c6ccccc6n2c5c31)C(=O)NC4", "target": "MAPK3 (Homo sapiens, UniProt P27361)", "test": "ADP-Glo", "conditions": "5.92 µM, together with: MBP substrate", "endpoint": "kinase activity", "result": "101% and 97.2% and 123%"}
{"SMILES": "[2H]c1c([2H])c([C@]2([2H])CCCN2C(=O)C(C)(C)Oc2ccc3cn[nH]c3c2)c([2H])c([2H])c1C([2H])([2H])[2H]", "target": "PIP5K1C (Homo sapiens, UniProt O60331)", "test": "KINOMEscan", "conditions": "1 µM", "scale": "baseline: DMSO control", "endpoint": "remaining binding", "result": "91%"}
{"SMILES": "CCCCCCCCCC(=O)CC(=O)Nc1ccccc1", "target": "qscR (Pseudomonas aeruginosa, UniProt G3XD77)", "test": "ligand, differential scanning fluorimetry", "conditions": "ligand complex", "endpoint": "melting temperature", "result": "34.5 °C"}
{"SMILES": "CC1=C(C(=O)O)N2C(=O)[C@@H](NC(=O)[C@H](N)c3ccccc3)[C@H]2SC1", "target": "Penicillin-binding protein 2X", "test": "inhibitor", "system": "Streptococcus pneumoniae", "endpoint": "kinact/KI", "result": "360 ± 210 M⁻¹ s⁻¹"}
{"SMILES": "O=C(c1ccc(Cl)cc1)N1CCN2C(=O)N(OC(=O)N3CCOc4ccccc43)C(=O)C2C1 (stereo not shown)", "target": "OVCA2 (Homo sapiens, UniProt Q8WZ82)", "test": "MS-based ABPP", "system": "SW-620 conditioned medium", "conditions": "10 µM, 1 h, 37 °C", "scale": "baseline: compound over DMSO, lower = more inhibition", "endpoint": "median protein ratio", "result": 0.94}
{"SMILES": "O=c1c2ccccc2oc2cc(OCCCCc3ccccc3)ccc12", "target": "ache (Electrophorus electricus, UniProt O42275)", "test": "enzyme activity", "conditions": "0.73 µM, together with: substrate 0.43 mM", "scale": "higher = faster reaction", "endpoint": "reaction velocity", "result": "0.0006 a.u."}
{"SMILES": "COc1ccc(N2C(=O)N(c3c(C)cccc3Cl)Cc3cnc(Nc4ccc(C5CCN(C)CC5)cc4OC)nc32)nc1", "target": "EGFR (Homo sapiens, UniProt P00533)", "test": "kinase activity", "conditions": "0.5 µM", "endpoint": "inhibition", "result": "85%"}
{"SMILES": "CC[C@@H](C)[C@@H](NC(=O)[C@@H](Cc1ccc(O)cc1)NC(=O)[C@H]1CCCN1C(=O)[C@@H](CCCNC(=N)N)NC(=O)[C@H](N)Cc1c[nH]cn1)C(=O)N[C@H](C)C(=O)N[C@H](Cc1c[nH]cn1)C(=O)N[C@H](CCCNC(=N)N)C(=O)N[C@H](CCCCNC(=O)c1cccc(S(=O)(=O)F)c1)C(=O)N[C@H](Cc1ccc(O)cc1)C(=O)N[C@H](CO)C(=O)N[C@H](Cc1ccccc1)C(N)=O", "target": "Transferrin receptor protein 1 (Tfrc, Mus musculus, UniProt Q62351)", "test": "flow cytometry", "system": "B16", "conditions": "6 h, unit not given", "scale": "baseline: 0 h", "endpoint": "surface TFRC expression", "result": 0.57}
{"SMILES": "O=C(O)COP(=O)(O)O", "target": "TPI1 (Saccharomyces cerevisiae, UniProt P00942, S211A)", "test": "enzyme activity, competitive inhibitor, GPDH/NADH-coupled", "conditions": "pH 8.3, 25 °C, ionic strength 0.1 NaCl, together with: glyceraldehyde 3-phosphate substrate", "scale": "baseline: mutant over wild type", "endpoint": "Ki ratio", "result": 50}
{"SMILES": "Nc1ncnc2c1ncn2[C@@H]1O[C@@H]2COP(=O)(O)O[C@@H]3[C@H](O)[C@@H](COP(=O)(O)O[C@H]2[C@H]1O)O[C@H]3n1cnc2c(N)ncnc21", "target": "CBASS effector Cap5 (Pseudomonas syringae, UniProt A0A2P0QGK5)", "test": "plasmid DNA cleavage, agarose gel", "conditions": "20 min, together with: plasmid DNA 50 nM", "endpoint": "lowest concentration for DNA cleavage", "result": "~1 µM"}
{"SMILES": "CN(C(=O)n1cnc(-c2ccc[n+]([O-])c2)c1)C1CCCCC1", "target": "CX3CR1", "test": "radioligand binding, inhibitor", "conditions": "50 µM", "endpoint": "inhibition", "result": "10%"}
{"SMILES": "Nc1ncc(-c2nc(N3CCOCC3)nc(N3CCOCC3)n2)c(C(F)F)n1", "target": "DCLK1 (Homo sapiens, UniProt O15075)", "test": "KINOMEscan", "conditions": "10 µM", "endpoint": "remaining binding", "result": "86%"}
{"SMILES": "COc1cc(O)cc(/C=C/c2ccc(O)cc2)c1", "target": "O-methyltransferase (Sorghum bicolor, UniProt A0A1B6PFV1)", "test": "isothermal titration calorimetry", "conditions": "concentration not given, apo protein", "endpoint": "ΔG of binding", "result": "-7.81 kcal/mol"}
{"SMILES": "CN(C(=O)n1cnc(-c2ccc[n+]([O-])c2)c1)C1CCCCC1", "target": "Monoacylglycerol lipase ABHD6 (Abhd6, Rattus norvegicus, UniProt Q5XI64)", "test": "enzyme activity, ABPP", "system": "rat, brain", "conditions": "oral, 10 mg/kg/day, 28 days", "scale": "baseline: vehicle", "endpoint": "fold change", "result": -5.9}
{"SMILES": "O=C[C@H](O)COP(=O)(O)O", "target": "TPI1 (Saccharomyces cerevisiae, UniProt P00942, Y208F)", "test": "substrate, GPDH/NADH-coupled", "conditions": "pH 5.7, 25 °C", "endpoint": "Km", "result": "~18 mM"}
{"SMILES": "CNC(C)Cc1ccc2n[se]nc2c1 (stereo not shown)", "target": "HTR2C", "test": "agonist", "scale": "baseline: 5-HT", "endpoint": "Emax", "result": "65.9 ± 11.5%"}
{"SMILES": "CC(C)(C)C(=O)CSc1ncc2c(n1)-c1ccccc1CC2", "target": "Dual specificity protein phosphatase 10, catalytic domain (Homo sapiens, UniProt Q9Y6W6)", "test": "X-ray co-crystal structure", "conditions": "concentration not given", "endpoint": "active site volume", "result": "51.4 ± 1.5 Å³"}
{"SMILES": "Cc1cc(N2CCNCC2)nc2ccccc12", "target": "CHRM2 (Homo sapiens, UniProt P08172)", "test": "ERK1/2 phosphorylation, agonist", "system": "CHO cells", "endpoint": "Emax", "result": "< 10%"}
{"SMILES": "Cc1ccc([C@H]2C[C@@H]2COc2cc(NCc3nnc(C)s3)nc(C)n2)nc1", "target": "PDE11A (Homo sapiens, UniProt Q9HCR9)", "test": "enzyme activity, inhibitor, IMAP fluorescence polarization", "conditions": "isoform PDE11A4", "scale": "baseline: Ki target over Ki PDE10A2", "endpoint": "selectivity ratio", "result": "> 3.28e+06 fold"}
{"SMILES": "O=C(O)c1ccc(CN2C(=O)CN(C(=O)c3ccco3)c3cc(-c4ccccc4)c(Oc4ccc(C(=O)O)cc4)cc32)cc1", "target": "GUCY1B1, with alpha-1 subunit (Homo sapiens, UniProt Q02153)", "test": "purified recombinant enzyme", "conditions": "10 µM, wild-type α1/β1", "endpoint": "sGC activity", "result": "271 ± 114 nmol cGMP/min/mg"}
{"SMILES": "Cc1onc(-c2c(Cl)cccc2Cl)c1C(=O)N[C@@H]1C(=O)N2[C@@H]1SC(C)(C)[C@@H]2C(=O)O", "target": "Penicillin-binding protein 2X", "test": "inhibitor", "system": "Streptococcus pneumoniae", "endpoint": "kinact/KI", "result": "38000 ± 5200 M⁻¹ s⁻¹"}
{"SMILES": "CN1CCN(c2cc(-c3ccncc3)c(-c3ccc4ccccc4c3)nn2)CC1", "target": "CX3CR1", "test": "agonist, FLIPR calcium", "conditions": "12.5 µM", "endpoint": "activation", "result": "-1.7%"}
{"SMILES": "COc1ccc(Nc2nn3c(-c4ccccc4)ccnc3c2C(=O)Nc2ccccc2)cc1", "target": "α-glucosidase", "test": "SDS-PAGE densitometry, refers to: 45 kDa band", "conditions": "1 mg/mL", "scale": "baseline: untreated enzyme, lower = more denaturation", "endpoint": "band intensity", "result": "101 a.u."}
{"SMILES": "CC[C@H](C)[C@@H]1NC(=O)[C@H](Cc2c[nH]c3ccccc23)NC(=O)[C@H](Cc2ccc(O)cc2)NC(=O)CSC[C@@H](C(N)=O)NC(=O)[C@H]([C@@H](C)O)NC(=O)[C@H](CO)NC(=O)[C@H](C(C)C)NC(=O)[C@H](Cc2ccc(O)cc2)NC(=O)[C@H](CCCNC(=N)N)NC(=O)[C@H](Cc2ccc(O)cc2)NC(=O)[C@H]([C@@H](C)O)NC(=O)[C@H]([C@@H](C)O)NC(=O)[C@H](Cc2c[nH]c3ccccc23)NC(=O)[C@H](CO)NC(=O)[C@H](CC(N)=O)NC(=O)[C@H](CO)NC1=O", "target": "Vacuolar protein sorting-associated protein 26A/Vacuolar protein sorting-associated protein 35, Vps35 residues 1–390 (Homo sapiens, UniProt O75436+Q96QK1)", "test": "ITC", "conditions": "25 °C", "endpoint": "ΔH", "result": "-6.8 ± 1.2 kcal/mol"}
{"SMILES": "O=C(O)Cc1c[nH]cn1", "target": "SLC6A6 (Homo sapiens, UniProt P31641, Y138A)", "test": "binding, microscale thermophoresis", "conditions": "40.3 nM, fitted curve", "scale": "higher = more binding", "endpoint": "fraction bound", "result": 0.000233}
{"SMILES": "O=C(Nc1cnccc1Cl)N1CCN(Cc2ccc3c(c2)OC(F)(F)O3)CC1", "target": "GRM5 (Homo sapiens, UniProt P41594)", "test": "radioligand binding", "conditions": "50 µM, together with: [3H]quisqualic acid", "endpoint": "inhibition of binding", "result": "8%"}
{"SMILES": "Nc1ncnc2c1ncn2[C@@H]1O[C@H](COP(=O)(O)O)[C@@H](O)[C@H]1O", "target": "Thermonuclease (nuc, Staphylococcus aureus, UniProt P00644)", "test": "folding kinetics", "conditions": "unit not given", "scale": "baseline: prAp", "endpoint": "phi value", "result": "0.4 ± 0.08"}
{"SMILES": "Nc1ncnc2c1ncn2[C@@H]1O[C@H](COP(=O)(O)OP(=O)(O)NP(=O)(O)O)[C@@H](O)[C@H]1O", "target": "Cell cycle histidine kinase CckA, cytoplasmic region (Caulobacter vibrioides, UniProt Q9X688)", "test": "ITC", "conditions": "12 °C, without c-di-GMP", "endpoint": "-TΔS", "result": "-5.2 kcal/mol"}
{"SMILES": "Nc1nc2c(ncn2[C@@H]2O[C@H](COP(=O)(O)OP(=O)(O)OP(=O)(O)O)[C@@H](O)[C@H]2O)c(=O)[nH]1", "target": "GTP 3',8-cyclase (moaA, Staphylococcus aureus, UniProt P69848, R266K)", "test": "isothermal titration calorimetry", "conditions": "concentration not given, 25 °C, R266K mutant, anaerobic", "endpoint": "binding enthalpy", "result": "-3.65 ± 0.29 kcal/mol"}
{"SMILES": "C[C@H]1CN(c2n[nH]c3nc(N[C@H]4CC[C@H](NS(=O)(=O)CCC(F)(F)F)CC4)ncc23)CCO1", "target": "KHSRP (Homo sapiens, UniProt Q92945)", "test": "inhibitor, Kinobeads competition profiling", "conditions": "0.8 µM", "scale": "baseline: vehicle", "endpoint": "relative abundance", "result": 1.47}
{"SMILES": "CCCC(NCCc1cc(OC)c(C#N)cc1OC)c1ccccc1O.Cl (stereo not shown)", "target": "HTR2C", "test": "Gq dissociation, agonist, BRET", "conditions": "10 µM", "scale": "baseline: 5-HT", "endpoint": "activity", "result": "~44%"}
